Assay results of several laboratories.
Each numbered part is a random draw from the data of one study; scales do not carry over between parts.
UniProt Q6XUX3, sequence (whole entry, looked up): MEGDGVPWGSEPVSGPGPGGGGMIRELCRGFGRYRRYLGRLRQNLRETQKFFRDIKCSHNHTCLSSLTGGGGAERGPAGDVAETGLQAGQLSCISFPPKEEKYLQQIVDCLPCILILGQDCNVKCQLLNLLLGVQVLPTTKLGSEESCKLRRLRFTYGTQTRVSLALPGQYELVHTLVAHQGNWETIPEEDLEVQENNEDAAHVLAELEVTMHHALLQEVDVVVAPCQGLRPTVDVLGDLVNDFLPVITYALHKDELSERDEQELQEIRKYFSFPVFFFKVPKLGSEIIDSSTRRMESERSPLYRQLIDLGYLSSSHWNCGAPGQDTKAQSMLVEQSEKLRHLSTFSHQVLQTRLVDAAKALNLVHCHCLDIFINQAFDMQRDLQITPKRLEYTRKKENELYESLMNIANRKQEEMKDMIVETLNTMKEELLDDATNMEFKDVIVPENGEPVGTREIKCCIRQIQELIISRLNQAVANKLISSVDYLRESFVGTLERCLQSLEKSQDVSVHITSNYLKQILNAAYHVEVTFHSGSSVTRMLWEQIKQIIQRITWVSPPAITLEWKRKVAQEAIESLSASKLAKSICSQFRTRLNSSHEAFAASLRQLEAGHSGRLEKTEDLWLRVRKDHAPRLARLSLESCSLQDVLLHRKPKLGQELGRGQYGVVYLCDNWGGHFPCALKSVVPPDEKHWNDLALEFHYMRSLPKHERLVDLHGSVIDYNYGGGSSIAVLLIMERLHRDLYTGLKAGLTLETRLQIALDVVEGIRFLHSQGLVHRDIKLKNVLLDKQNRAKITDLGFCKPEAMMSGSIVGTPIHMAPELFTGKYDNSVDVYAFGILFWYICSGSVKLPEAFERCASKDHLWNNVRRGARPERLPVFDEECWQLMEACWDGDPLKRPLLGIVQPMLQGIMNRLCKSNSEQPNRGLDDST
UniProt Q59H18, sequence (whole entry, looked up): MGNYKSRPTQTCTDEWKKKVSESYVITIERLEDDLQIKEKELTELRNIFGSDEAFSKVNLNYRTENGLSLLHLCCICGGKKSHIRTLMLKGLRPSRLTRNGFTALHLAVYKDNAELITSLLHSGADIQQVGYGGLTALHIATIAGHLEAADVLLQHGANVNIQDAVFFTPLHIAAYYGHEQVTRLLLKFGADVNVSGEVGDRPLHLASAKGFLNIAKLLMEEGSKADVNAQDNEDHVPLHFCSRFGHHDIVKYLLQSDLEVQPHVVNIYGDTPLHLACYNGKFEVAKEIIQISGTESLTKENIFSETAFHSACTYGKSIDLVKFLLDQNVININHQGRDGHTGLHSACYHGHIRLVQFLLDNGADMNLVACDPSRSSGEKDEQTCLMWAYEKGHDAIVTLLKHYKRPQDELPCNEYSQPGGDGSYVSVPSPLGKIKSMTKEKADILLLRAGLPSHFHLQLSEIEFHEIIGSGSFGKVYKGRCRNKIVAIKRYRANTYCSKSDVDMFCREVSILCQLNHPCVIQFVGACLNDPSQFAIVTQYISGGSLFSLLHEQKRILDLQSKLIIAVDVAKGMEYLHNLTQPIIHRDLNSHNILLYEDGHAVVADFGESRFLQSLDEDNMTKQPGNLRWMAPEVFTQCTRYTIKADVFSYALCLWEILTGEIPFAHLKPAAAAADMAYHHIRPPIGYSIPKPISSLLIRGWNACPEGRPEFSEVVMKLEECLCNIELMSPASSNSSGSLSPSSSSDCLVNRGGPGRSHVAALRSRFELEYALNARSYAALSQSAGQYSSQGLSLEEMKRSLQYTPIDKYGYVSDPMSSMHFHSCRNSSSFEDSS
UniProt O14730, sequence (whole entry, looked up): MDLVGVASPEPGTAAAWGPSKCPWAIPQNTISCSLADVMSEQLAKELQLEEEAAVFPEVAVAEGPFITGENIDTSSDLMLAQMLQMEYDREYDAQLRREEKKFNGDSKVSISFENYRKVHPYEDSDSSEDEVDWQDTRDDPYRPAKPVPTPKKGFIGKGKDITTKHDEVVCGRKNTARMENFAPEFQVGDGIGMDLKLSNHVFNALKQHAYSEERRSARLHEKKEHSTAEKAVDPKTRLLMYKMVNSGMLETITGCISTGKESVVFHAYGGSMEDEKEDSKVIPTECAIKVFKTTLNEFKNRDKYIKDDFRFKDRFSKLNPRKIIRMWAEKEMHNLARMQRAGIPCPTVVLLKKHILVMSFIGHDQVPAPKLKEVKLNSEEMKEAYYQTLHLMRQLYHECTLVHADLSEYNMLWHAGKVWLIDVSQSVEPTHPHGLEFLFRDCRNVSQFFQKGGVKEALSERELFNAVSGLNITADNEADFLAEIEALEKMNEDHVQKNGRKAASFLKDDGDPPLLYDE
UniProt P57078, sequence (whole entry, looked up): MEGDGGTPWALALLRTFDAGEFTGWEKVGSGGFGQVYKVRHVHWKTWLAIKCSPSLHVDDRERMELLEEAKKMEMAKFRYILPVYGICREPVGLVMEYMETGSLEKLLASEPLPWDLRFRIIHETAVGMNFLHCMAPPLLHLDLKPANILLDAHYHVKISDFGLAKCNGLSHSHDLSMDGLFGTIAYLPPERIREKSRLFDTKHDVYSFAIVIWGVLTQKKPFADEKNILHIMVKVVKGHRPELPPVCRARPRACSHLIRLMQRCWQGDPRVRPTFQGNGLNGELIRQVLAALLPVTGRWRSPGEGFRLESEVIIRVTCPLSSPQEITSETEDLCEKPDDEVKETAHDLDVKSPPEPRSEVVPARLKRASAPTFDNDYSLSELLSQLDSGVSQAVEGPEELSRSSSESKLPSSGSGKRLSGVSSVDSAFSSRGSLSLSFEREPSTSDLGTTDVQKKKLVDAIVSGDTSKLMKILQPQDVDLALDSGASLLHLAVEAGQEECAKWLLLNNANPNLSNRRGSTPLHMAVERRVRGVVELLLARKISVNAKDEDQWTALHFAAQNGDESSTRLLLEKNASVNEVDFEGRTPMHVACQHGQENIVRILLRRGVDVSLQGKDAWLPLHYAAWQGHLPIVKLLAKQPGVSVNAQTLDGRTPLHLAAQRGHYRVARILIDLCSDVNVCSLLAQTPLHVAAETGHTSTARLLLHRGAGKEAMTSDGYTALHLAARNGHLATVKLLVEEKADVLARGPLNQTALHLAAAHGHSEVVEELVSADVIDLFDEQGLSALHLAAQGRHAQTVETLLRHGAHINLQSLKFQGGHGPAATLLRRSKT
UniProt Q9UQ88, sequence (whole entry, looked up): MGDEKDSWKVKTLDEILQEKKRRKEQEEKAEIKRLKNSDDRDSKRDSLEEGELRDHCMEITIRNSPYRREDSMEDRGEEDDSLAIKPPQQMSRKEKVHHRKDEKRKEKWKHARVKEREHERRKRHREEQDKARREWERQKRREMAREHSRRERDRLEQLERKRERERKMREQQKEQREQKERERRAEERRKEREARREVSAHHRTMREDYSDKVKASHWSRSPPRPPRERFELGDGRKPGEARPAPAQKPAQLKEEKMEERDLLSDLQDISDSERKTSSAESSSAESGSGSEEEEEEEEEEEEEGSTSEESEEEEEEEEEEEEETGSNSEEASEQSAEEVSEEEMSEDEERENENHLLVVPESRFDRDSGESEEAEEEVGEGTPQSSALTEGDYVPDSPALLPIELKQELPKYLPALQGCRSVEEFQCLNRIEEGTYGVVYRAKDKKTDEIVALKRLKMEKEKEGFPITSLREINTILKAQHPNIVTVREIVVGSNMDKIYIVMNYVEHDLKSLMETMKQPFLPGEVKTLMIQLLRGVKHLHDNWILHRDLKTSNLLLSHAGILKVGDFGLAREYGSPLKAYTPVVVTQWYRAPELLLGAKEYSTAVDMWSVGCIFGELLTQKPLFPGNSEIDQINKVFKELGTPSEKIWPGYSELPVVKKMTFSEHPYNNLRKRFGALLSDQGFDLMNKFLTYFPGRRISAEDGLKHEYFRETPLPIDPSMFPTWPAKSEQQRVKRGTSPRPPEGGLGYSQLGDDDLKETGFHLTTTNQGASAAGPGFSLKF
UniProt P51451, sequence (whole entry, looked up): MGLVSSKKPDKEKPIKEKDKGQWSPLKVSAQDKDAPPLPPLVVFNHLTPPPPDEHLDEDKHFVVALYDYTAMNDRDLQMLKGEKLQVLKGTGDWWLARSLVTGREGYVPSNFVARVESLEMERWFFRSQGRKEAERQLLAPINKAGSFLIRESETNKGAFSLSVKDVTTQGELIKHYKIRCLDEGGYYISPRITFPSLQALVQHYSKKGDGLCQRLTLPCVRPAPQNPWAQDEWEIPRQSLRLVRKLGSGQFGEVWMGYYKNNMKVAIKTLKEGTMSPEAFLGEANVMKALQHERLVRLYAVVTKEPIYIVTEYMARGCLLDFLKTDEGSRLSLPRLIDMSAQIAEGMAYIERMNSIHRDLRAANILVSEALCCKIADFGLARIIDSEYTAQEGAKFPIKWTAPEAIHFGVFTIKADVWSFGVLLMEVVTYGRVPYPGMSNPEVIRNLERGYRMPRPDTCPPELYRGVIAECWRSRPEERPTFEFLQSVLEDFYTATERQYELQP
UniProt P0C1S8, sequence (whole entry, looked up): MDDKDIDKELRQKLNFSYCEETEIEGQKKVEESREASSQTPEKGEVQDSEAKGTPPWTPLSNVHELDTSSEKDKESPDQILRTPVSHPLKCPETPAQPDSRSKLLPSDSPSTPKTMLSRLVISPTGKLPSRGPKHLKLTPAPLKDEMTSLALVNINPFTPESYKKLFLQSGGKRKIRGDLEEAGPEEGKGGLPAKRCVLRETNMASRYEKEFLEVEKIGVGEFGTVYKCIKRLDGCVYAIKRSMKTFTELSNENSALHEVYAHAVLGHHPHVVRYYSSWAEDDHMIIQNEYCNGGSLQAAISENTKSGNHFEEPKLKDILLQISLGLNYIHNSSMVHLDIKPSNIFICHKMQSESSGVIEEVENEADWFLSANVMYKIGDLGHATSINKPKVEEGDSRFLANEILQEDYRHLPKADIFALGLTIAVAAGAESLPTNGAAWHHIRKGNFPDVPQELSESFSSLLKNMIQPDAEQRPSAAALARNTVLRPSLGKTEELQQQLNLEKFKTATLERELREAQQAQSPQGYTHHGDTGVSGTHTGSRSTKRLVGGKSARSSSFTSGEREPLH

Block 1 — tested at: 1 µM
Compound: CNC(=O)Nc1ccc2c(c1)CC[C@@]21OC(=O)N(CC(=O)N(Cc2ccc(F)cc2)[C@@H](C)C(F)(F)F)C1=O
target	observed	technique	remaining binding
RIPK4 (Homo sapiens, UniProt P57078)	cell-free assay	competition with immobilised ligand	56%
WEE2 (Homo sapiens, UniProt P0C1S8)	cell-free assay	competition with immobilised ligand	75%
CDK11A (Homo sapiens, UniProt Q9UQ88)	binding	competition with immobilised ligand	83%
RIOK3 (Homo sapiens, UniProt O14730)	cell-free assay	competition with immobilised ligand	89%
FLT3 (Homo sapiens, UniProt P36888, ITD)	cell-free assay	competition with immobilised ligand	84%
DSTYK (Homo sapiens, UniProt Q6XUX3)	cell-free assay	competition with immobilised ligand	78%
MAPKAPK2 (Homo sapiens, UniProt P49137)	cell-free assay	competition with immobilised ligand	87%
SIK1 (Homo sapiens, UniProt P57059)		competition binding	98%
CLK2 (Homo sapiens, UniProt P49760)	cell-free assay	competition with immobilised ligand	97%
BLK (Homo sapiens, UniProt P51451)	cell-free assay	competition with immobilised ligand	100%
WNK4 (Homo sapiens, UniProt Q96J92)	cell-free assay	competition with immobilised ligand	73%
TNNI3K (Homo sapiens, UniProt Q59H18)	cell-free assay	competition with immobilised ligand	97%
PDGFRB (Homo sapiens, UniProt P09619)	cell-free assay	competition with immobilised ligand	100%
KIT (Homo sapiens, UniProt P10721, D816H)	cell-free assay	competition with immobilised ligand	67%

Block 2 — technique: RNA Bind-n-Seq; form: RNA; matrix: in vitro; tested at: 200 nM; notes: whole 134-nt RNA, ends assumed; added: 150 mM KCl; baseline: input library; reading: higher = stronger binding
Target: Fragile X messenger ribonucleoprotein 1, C-terminal low-complexity region (Fmr1, Mus musculus, UniProt P35922)
All sequences stand within: GGGAGUUCUACAGUCCGACGAUC … UGGAAUUCUCGGGUGUCAAGG
Sequence	log2 enrichment
GUCCUGUGCUACACAUCGUAUGUACCGAAUCAAACCCCCCCAAACCCCCAAAUUUAAAAAAGUAUUAUGUUACGCCGUUCGGAUCUGCAC	-0.168
AAGUCCUGUGCUACACAUCGUAUGUACCGAAUCGGGAAAGGGUGGGUUUUUUUGGGAAAGUAUUAUGUUACGCCGUUCGGAUCUGCACUU	0.891
ACCAUGCAGGUGGGCAUCUUUGGGAAGUGGGGCAAGGGGGGGAUAGGGAGGGGGGUAACACUUUGGGAACAGGUGGUCCCAGAUCGUUUC	0.757
CAAGUCCUGUGCUACACAUCGUAUGUACCGAAUCGGUUUGGUUUGGGGUUUGGGGAAAGUAUUAUGUUACGCCGUUCGGAUCUGCACUUC	-0.025
ACCAUGCAGGUGGGCAUCUUUGGGAAGUGGGGCAAGGGGGGGAUAGGGAAAGGGGUAACACUUUGGGAACAGGUGGUCCCAGGUCGUUUC	0.688
AAAUAUCAGUGAUCAUCGCAAGGAAGGAGGCAGACAAGAGUAAGGCACACCUGACUCUUAGGACUAGCAGUCAGAACCAGGAGGAAAGGU	-0.117
UCCUGUGCUACACAUCGUAUGUACCGAAUCGGUUUUUUGGGGUUUUUUGGGUUUUUUGGGAAAGUAUUAUGUUACGCCGUUCGGAUCUGC	0.0616
UCCUGUGCUACACAUCGUAUGUACCGAAUCGGGGUUUUUGGUUUUUGGGGUUUUUGGGGAAAGUAUUAUGUUACGCCGUUCGGAUCUGCA	0.271

Block 3 — observed: enzyme activity; action: inhibitor; tested at: 0.5 µM; baseline: control
Target: Dual serine/threonine and tyrosine protein kinase (DSTYK, Homo sapiens, UniProt Q6XUX3)
SMILES	remaining activity [%]
CO[C@H]1C[C@@H]2CC[C@@H](C)[C@@](O)(O2)C(=O)C(=O)N2CCCC[C@H]2C(=O)O[C@H]([C@H](C)C[C@@H]2CC[C@@H](O)[C@H](OC)C2)CC(=O)[C@H](C)/C=C(\C)[C@@H](O)[C@@H](OC)C(=O)[C@H](C)C[C@H](C)/C=C/C=C/C=C/1C	107
NCCNc1ncc(C(N)=O)c(Nc2cccc(C(F)(F)F)c2)n1	93.1
COc1ccc(OC)c2c(=S)c3ccccc3[nH]c12	91.3
Nc1ncnc2n[nH]c(Nc3ccc(F)cc3)c12	109
O=c1c2ccccc2[nH]c(=S)n1CCN1CCC(=C(c2ccc(F)cc2)c2ccc(F)cc2)CC1	86.5
O=C1NC(=O)C(c2cn(CCCO)c3ncccc23)=C1c1cnccn1	78
CCOC(=O)c1c(C)[nH]c(/C=C2\C(=O)Nc3ccccc32)c1C	90.8
Cn1sc(=O)n(Cc2ccccc2)c1=O	92.9
Cc1nc(-c2ccccc2)c(-c2ccncc2)o1	91
Nc1ccc2ncnc(NCCc3ccc(Oc4ccccc4)cc3)c2c1	101
O=C(CCCc1ccc(-c2ccccc2F)cc1)Nc1ccc(O)cc1	103
Cn1c2ccccc2c2c3c(c4c5ccccc5n(CCC#N)c4c21)CNC3=O	9.91
COc1ccc(CNC(=O)Nc2ncc([N+](=O)[O-])s2)cc1	96.2
CNC(=O)c1cc(Oc2ccc(NC(=O)Nc3ccc(Cl)c(C(F)(F)F)c3)cc2)ccn1	97.7
N#CC(C#N)=C(N)/C(C#N)=C/c1ccc(O)cc1	92.9

Block 4 — technique: protein-binding microarray; form: double-stranded DNA, one strand shown; matrix: in vitro; tested at: not given; reading: higher = stronger binding
Target: Protein C-ets-1 (ETS1, Homo sapiens, UniProt P14921, residues 1-441, Y397A, full length assumed)
Notes: k-mer, scored over probes, only values ≥0.25
Residues (chain): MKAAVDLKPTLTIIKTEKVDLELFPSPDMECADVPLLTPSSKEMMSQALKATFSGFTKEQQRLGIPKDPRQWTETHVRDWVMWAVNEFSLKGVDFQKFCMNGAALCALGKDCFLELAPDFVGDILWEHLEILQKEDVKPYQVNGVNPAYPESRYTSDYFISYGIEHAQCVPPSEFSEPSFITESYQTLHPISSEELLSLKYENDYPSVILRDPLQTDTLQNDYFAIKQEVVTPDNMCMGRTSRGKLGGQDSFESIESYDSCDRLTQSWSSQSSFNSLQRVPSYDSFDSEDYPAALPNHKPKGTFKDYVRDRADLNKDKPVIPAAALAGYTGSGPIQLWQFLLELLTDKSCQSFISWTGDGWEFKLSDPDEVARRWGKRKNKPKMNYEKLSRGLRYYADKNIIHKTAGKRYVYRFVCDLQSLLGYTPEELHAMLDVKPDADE
Sequence	E-score
TCGTGACA	0.307
CCCGCCGC	0.302
CAACCCCA	0.297
CGACGAAA	0.277
AAATTTGT	0.253
GGTGGGGA	0.409
CCACATCC	0.271
AACTTCCA	0.253

A few entries again (block 4):
Sequence	E-score
CCCGCCGC	0.302
CAACCCCA	0.297
CGACGAAA	0.277
AAATTTGT	0.253
GGTGGGGA	0.409
CCACATCC	0.271
AACTTCCA	0.253
